Experimental data pooled from the literature.
Compare with care: the assays were run in different laboratories. Values joined by “and” are separate records of one study, mostly repeats; a detail may differ. ± gives the spread as reported.
MAPK8: Mitogen-activated protein kinase 8 (MAPK8, Homo sapiens, UniProt P45983)
STING1 H232R: Stimulator of interferon genes protein (STING1, Homo sapiens, UniProt Q86WV6, H232R)

| SMILES | tested on | assay | test system | setting | scale | quantity | value |
| --- | --- | --- | --- | --- | --- | --- | --- |
| Cc1cn(CC(=O)N(CCNC(=O)CN(CCNC(=O)CN(CCNC(=O)CN(CCNC(=O)CN(CCNC(=O)CN(CCNC(=O)CN(CCNC(=O)CN(CCN)C(=O)Cn2cnc3c(=O)[nH]c(N)nc32)C(=O)Cn2cnc3c(N)ncnc32)C(=O)Cn2cc(C)c(=O)[nH]c2=O)C(=O)Cn2cnc3c(=O)[nH]c(N)nc32)C(=O)Cn2cc(C)c(=O)[nH]c2=O)C(=O)Cn2cnc3c(=O)[nH]c(N)nc32)C(=O)Cn2cnc3c(N)ncnc32)CC(=O)NCCN(CC(=O)NCCOCCOCC(N)=O)C(=O)Cn2cnc3c(N)ncnc32)c(=O)[nH]c1=O | complementary RNA | duplex formation, UV melting curve fit | PBS | 1 µM, fit parameter α 0.5 | – | Tm | 44.4 ± 0.1 °C |
| O=C(O)P(=O)(O)O | DNA polymerase catalytic subunit (Human cytomegalovirus, UniProt P08546) | enzyme activity, inhibitor | – | – | – | Hill slope | 0.95 |
| C=C1CC2(C(=O)OC)C=C(C(=O)OC(C)(C)C)C(=O)C1C2 (centres unmarked) | MAPK8 | D-peptide binding, inhibitor, FP peptide displacement | – | 250 µM | lower is stronger displacement | fraction bound | 0.182 |
| COc1ccccc1-c1ccncc1C(=O)Nc1nnc(OCc2ccc(Cl)cc2)s1 | Bifunctional 3'-5' exonuclease/ATP-dependent helicase WRN, residues 500-946 (WRN, Homo sapiens, UniProt Q14191) | ATPase activity, ADP-Glo | – | 1.9 µM | reference: 0 µM cpd | remaining activity | 96% |
| Cc1ncsc1-c1ccc(C(C)NC(=O)C2CC(O)CN2C(=O)C(NC(=O)CCCCCCCCCCN2CCCC(Nc3ncc(Cl)c(Nc4ccccc4S(=O)(=O)C(C)C)n3)C2)C(C)(C)C)cc1 (centres unmarked) | 22Rv1 | RNA-seq, item: RIMBP3 mRNA | – | concentration not given | reference: DMSO | log2 fold change | -6.21 |
| COC(=O)[C@@]1(Cc2ccccc2)C=C(C(=O)OC(C)(C)C)C(=O)CC1 | MAPK8 | D-peptide binding, inhibitor, FP peptide displacement | – | 15.62 µM | lower is stronger displacement | fraction bound | 0.182 |
| CCOC(=O)[C@](CC)(CCCSCCOCCOCCN)NC(=O)c1ccc(C2CC2)c(Cc2ccc(F)cc2)n1 | Cnr2 (Mus musculus, UniProt P47936) | cAMP, agonist | – | – | – | Emax | 91% |
| CN(Cc1cc(C2CC2)on1)C(=O)c1cccc(-c2ccc3c(c2)CCO3)c1 | acetoacetyl-CoA synthetase (Cryptococcus neoformans) | enzyme activity, inhibitor | – | 7.81 µM | – | remaining activity | 103% |
| O=P(O)(O)O[C@@H]1[C@@H](OP(=O)(O)O)[C@H](OP(=O)(O)O)[C@H](O)[C@H](OP(=O)(O)O)[C@H]1OP(=O)(O)O | Inositol-tetrakisphosphate 1-kinase (Homo sapiens, UniProt Q13572) | enzyme activity, substrate | – | – | – | Km | 2.1 µM |
| Clc1ccc(C(Cn2cnc3ccccc32)OCc2ccc3ccccc3c2)c(Cl)c1 (centres unmarked) | ULK1 (Homo sapiens, UniProt O75385) | enzyme activity, inhibitor, ADP detection | – | 0.1 µM | – | activity vs control | 106% |
| O=C(NCC[C@H](NS(=O)(=O)c1ccc(-c2ccccc2)cc1)c1nc2ccccc2[nH]1)c1ccc([N+](=O)[O-])o1 | STING1 H232R | reporter gene, inhibitor | THP1-Dual KI-hSTING-R232 | 24 h, 1 h preincubation, with: diABZI 500 nM | – | EC50 | 2500 nM |
| CC(C)Oc1cc(Cl)ccc1CNc1cc(-c2ccccc2)nc2ncnn12 | GPR3 (Homo sapiens, UniProt P46089) | cAMP reporter | human cells | 100 µM | higher is more cAMP | cAMP luminescence | 795 a.u. and 691 a.u. and 656 a.u. and 2590 a.u. and 1920 a.u. and 1040 a.u. |
| N#Cc1ccc(CN(CCC(=O)NO)Cc2ccc(C#N)cc2)cc1 | Astacin-like metalloendopeptidase (Astl, Mus musculus, UniProt Q6HA09) | enzyme activity, inhibitor, fluorogenic | – | 5 µM | – | remaining activity | 21 ± 2% |
| O=C(NS(=O)(=O)c1cccs1)c1cc2ccccc2n1Cc1ccc(Br)c2ccccc12 | SLC22A12 (Homo sapiens, UniProt Q96S37) | binding, SPR | – | – | – | kon | 3240 M⁻¹ s⁻¹ |
| Cc1ccc(-c2c(/C=C(\C#N)C(=O)NC(C)C)n(CCCO)c3ncnc(N)c23)cc1 | Tyrosine-protein kinase ABL1, phosphorylated (ABL1, Homo sapiens, UniProt P00519, H396P) | cell-free assay, competition with immobilised ligand | – | 1 µM | – | remaining binding | 100% |
| CC(=O)N1c2ccc(-c3ccc(CNC(=O)c4cn5cc(-c6cnc(N)nc6)nc(N6CCOCC6)c5n4)cc3)cc2CC[C@@H]1C | Bromodomain testis-specific protein, BD2 (BRDT, Homo sapiens, UniProt Q58F21) | binding, competition with immobilised ligand | – | 10 µM | – | remaining binding | 0.7% |

| SMILES | tested on | assay | test system | setting | scale | quantity | value |
| --- | --- | --- | --- | --- | --- | --- | --- |
| CCCCCCCCCCCCC/C=C/C=O | Elongation factor 2, Cys41 (EEF2, Homo sapiens, UniProt P13639) | competitive isoTOP-ABPP | Ramos soluble proteome | 100 µM, 60 min, with: iodoacetamide probe | reference: DMSO over compound-treated, higher = stronger cysteine blockade | isoTOP-ABPP competition ratio | 1 |
| CC[C@H](C)[C@@H]1NC(=O)[C@H](Cc2ccccc2)NC(=O)[C@H](CCC(=O)O)NC(=O)[C@H](CCCNC(=N)N)NC(=O)CNC(=O)[C@@H](NC(=O)[C@H](CC(C)C)NC(=O)[C@H](CCCNC(=N)N)NC(=O)[C@@H](NC(=O)CNC(=O)[C@H](Cc2ccc(O)cc2)NC(=O)[C@@H]2CCCN2C(=O)[C@H](C)NC(=O)[C@H](C)NC(=O)[C@@H](N)CCCNC(=N)N)C(C)C)CSSC[C@@H]2NC(=O)[C@@H](NC(=O)[C@H](CO)NC(=O)[C@H](CO)NC(=O)[C@H](CO)NC(=O)[C@H](CC(C)C)NC(=O)CNC(=O)[C@H](C)NC(=O)[C@H](CC(C)C)NC(=O)[C@@H](NC(=O)[C@@H](N)CC(=O)O)C(C)C)CSSC[C@H](NC(=O)CNC(=O)[C@H](Cc3c[nH]c4ccccc34)NC(=O)[C@H](CCCCN)NC2=O)C(=O)N[C@@H](CO)C(=O)N[C@@H](CCCCN)C(=O)N[C@@H](CO)C(=O)N[C@@H](CCC(=O)O)C(=O)N[C@@H]([C@@H](C)CC)C(=O)N[C@@H](CO)C(=O)N[C@@H](CO)C(=O)N[C@@H](CC(C)C)C(=O)N[C@H](C(=O)O)CSSC[C@@H](C(=O)NCC(=O)NCC(=O)N[C@@H](CO)C(=O)N[C@@H](CCCNC(=N)N)C(=O)N[C@@H](Cc2c[nH]c3ccccc23)C(=O)O)NC(=O)[C@H]([C@@H](C)O)NC(=O)[C@H](Cc2ccccc2)NC(=O)[C@H]([C@@H](C)CC)NC(=O)[C@H](C(C)C)NC(=O)[C@H](C)NC(=O)[C@H](CCCNC(=N)N)NC1=O | RXFP3 (Homo sapiens, UniProt Q9NSD7, F371A) | – | HEK-293T | – | reference: wild type | Emax | 67 ± 4.84% |
| Cc1cc(C)cc(COc2cc3c(cc2OCc2cc(C)cc(C)c2)C2CC(O)(Cc4cn(CCOCCOCCNC(=O)CCCCC5SCC6NC(=O)NC65)nn4)CC(C)N2CC3)c1 (centres unmarked) | Importin-5 (Homo sapiens, UniProt O00410) | biotinylated probe pull-down, item: IPO5 | – | 10 µM probe | reference: heavy over light | SILAC ratio | 3.61 |
| CN(C)c1ccc(-n2cc(COC(=O)[C@@]3(C)C=C(C(=O)OC(C)(C)C)C(=O)CC3)nn2)cc1 | MAPK8 | D-peptide binding, inhibitor, FP peptide displacement | – | 25 µM | lower is stronger displacement | fraction bound | 0.799 |
| Cn1cc(C(=O)N[C@@H](CCNC(=O)c2ccc([N+](=O)[O-])o2)c2nc3ccccc3[nH]2)nn1 | STING1 H232R | reporter gene, inhibitor | THP1-Dual KI-hSTING-R232 | 24 h, 1 h preincubation, with: diABZI 500 nM | – | EC50 | > 40000 nM |
| O=C1N(c2cccc(CN3CCN(Cc4ccc(Br)cc4)CC3)c2)C(=O)C12CCCCC2 | Dipeptidyl peptidase 8 (Homo sapiens, UniProt Q6V1X1) | enzyme activity, inhibitor | – | 5 µM | – | activity vs control | 7.9% |
| CC(C)[C@@H]1NC(=O)[C@H](Cc2ccccc2)NC(=O)CSC[C@@H](C(N)=O)NC(=O)[C@H](CCC(=O)O)NC(=O)[C@H](CO)NC(=O)[C@H](Cc2c[nH]c3cccc(Cl)c23)NC(=O)[C@H](C2CCCCC2)NC(=O)[C@H](C(C)C)NC(=O)[C@H](Cc2ccc(O)cc2)NC(=O)[C@H](CC(=O)O)NC(=O)[C@H](Cc2c[nH]c3ccccc23)NC(=O)[C@H](Cc2ccc(N)nc2)NC(=O)[C@H](Cc2c[nH]c3ccc(Cl)cc23)NC(=O)[C@H](CCC(=O)O)NC1=O | Interleukin-1 receptor-like 2 (IL1RL2, Homo sapiens, UniProt Q9HB29) | reporter gene (SEAP), inhibitor, HEK-Blue IL-36R reporter | HEK-Blue IL-36R cells | 0.046 µM, 6 h, with: IL-36β 0.3 ng/mL | – | remaining activity | 87.7% |
| COC1CN([C@H]2CC[C@H]([C@@]3(C)Oc4c(Cl)cc(C(=O)NCc5c(SC)cc(C)[nH]c5=O)c(C)c4O3)CC2)C1 | – | RNA-seq, item: PIAS2 | human, whole blood | dose not given, 24 h | reference: pretreatment baseline | log2 fold change | 1.34 |
| Cc1cc(C(=O)O)cc(COC(=O)N(C)C(=O)c2ccc(N3C(=S)N(c4ccc(C#N)c(C(F)(F)F)c4)C(=O)C3(C)C)cc2F)c1OP(=O)(O)O | Alkaline phosphatase, placental type (Homo sapiens, UniProt P05187) | substrate | – | 100 µM, pH 7.6, 37 °C | – | drug formation rate | 2.97 pmol/min |
| CC(/C=C/C(=O)NO)=C\[C@@H](C)C(=O)c1ccc(N(C)C)cc1 | HDAC8 (Homo sapiens, UniProt Q9BY41) | ITC | Tris-HCl buffer | concentration not given, 288 K | – | binding stoichiometry | 0.85 |
| CN(C(=O)[C@@H]1CSCC(=O)N[C@@H](Cc2ccccc2)C(=O)N[C@@H](CO)C(=O)N[C@@H](Cc2ccccc2)C(=O)N[C@@H](Cc2ccc(O)cc2)C(=O)N[C@@H](Cc2ccc(O)cc2)C(=O)N[C@@H](Cc2c[nH]cn2)C(=O)N[C@@H](Cc2c[nH]c3ccccc23)C(=O)N1)[C@@H](Cc1ccccc1)C(N)=O | STING1 H232R | thermal stability, DSF | – | 50 µM | – | ΔTm | 8.66 °C |
| C[C@@H]1C[C@H](Nc2ccccc2)c2cc(F)ccc2N1C(=O)c1ccc(N)cc1 | Ecdysone receptor (Aedes albopictus, UniProt Q9U3Y4) | ligand binding, inhibitor | intact cells | with: [3H]ponasterone A | direction not given | pIC50 Z-score | -1 |
| CC(C)C[C@@H]1NC(=O)[C@H](Cc2ccccc2)NC(=O)CSC[C@@H](C(=O)NCC(N)=O)NC(=O)[C@H](Cc2ccc(O)cc2)NC(=O)[C@H](C(C)C)NC(=O)[C@H](Cc2ccccc2)NC(=O)[C@H](Cc2ccc(O)cc2)NC(=O)[C@H](Cc2ccccc2)NC(=O)[C@H](CC(=O)O)NC(=O)[C@H](CC(N)=O)NC(=O)[C@H](CC(N)=O)NC(=O)[C@H](Cc2ccc(O)cc2)NC(=O)[C@H](C(C)C)NC(=O)[C@H](Cc2ccccc2)NC1=O | STING1 H232R | thermal stability, DSF | – | 200 µM | – | ΔTm | 0.24 °C |
| CCn1cc(-c2cccc(C(F)(F)F)c2)c2sc(C(=N)NC3CCS(=O)(=O)CC3)cc2c1=O | Bromodomain-containing protein 3, BD1 (BRD3, Homo sapiens, UniProt Q15059) | – | – | – | – | ΔTm | 4.5 °C |
| CCCCCC(O)/C=C/C=O (centres unmarked) | REEP5 (Homo sapiens, UniProt Q00765) | competitive isoTOP-ABPP | Ramos soluble proteome | 100 µM, 60 min, with: iodoacetamide probe | reference: DMSO over compound-treated, higher = stronger cysteine blockade | isoTOP-ABPP competition ratio | 14 |
| OC(Cc1cc(-c2ccc(C(O)C(F)(F)F)s2)sc1-c1ccc(-c2sc(-c3ccc(C(O)C(F)(F)F)s3)cc2CC(O)C(F)(F)F)s1)C(F)(F)F (centres unmarked) | primary human fetal neurons | LC-MS/MS | – | 4 µM, 120 min, replicate 3 | – | amount in cell extract | 0.02 nmol and 0.03 nmol |

A few entries again:
| SMILES | tested on | assay | test system | setting | scale | quantity | value |
| --- | --- | --- | --- | --- | --- | --- | --- |
| Cc1cn(CC(=O)N(CCNC(=O)CN(CCNC(=O)CN(CCNC(=O)CN(CCNC(=O)CN(CCNC(=O)CN(CCNC(=O)CN(CCNC(=O)CN(CCN)C(=O)Cn2cnc3c(=O)[nH]c(N)nc32)C(=O)Cn2cnc3c(N)ncnc32)C(=O)Cn2cc(C)c(=O)[nH]c2=O)C(=O)Cn2cnc3c(=O)[nH]c(N)nc32)C(=O)Cn2cc(C)c(=O)[nH]c2=O)C(=O)Cn2cnc3c(=O)[nH]c(N)nc32)C(=O)Cn2cnc3c(N)ncnc32)CC(=O)NCCN(CC(=O)NCCOCCOCC(N)=O)C(=O)Cn2cnc3c(N)ncnc32)c(=O)[nH]c1=O | complementary RNA | duplex formation, UV melting curve fit | PBS | 1 µM, fit parameter α 0.5 | – | Tm | 44.4 ± 0.1 °C |
| O=C(O)P(=O)(O)O | DNA polymerase catalytic subunit (Human cytomegalovirus, UniProt P08546) | enzyme activity, inhibitor | – | – | – | Hill slope | 0.95 |
